Measurements collected from several papers.
Parts stem from different laboratories: compare values within a part only. Changes are numbered by the printed parent chain.

Set 1 — technique: protein-binding microarray; molecule type: double-stranded DNA, one strand shown; sample: in vitro; tested at: 2200 nM top; setting: 60-bp whole probe; added: salmon DNA 0.4 mg/ml; relative to: random background probes; direction: higher = stronger binding; quantity: fitted relative affinity; all sequences stand within: GCCTAGCAC … GTCTTGATTCGCTTGACGCTGCTG
Target: Interferon regulatory factor 7, full length, phosphomimetic (IRF7, Homo sapiens, UniProt Q92985, residues 1-503, S471D/S472D/S475D/S476D/S477D/S483D/S484D/S487D)
UniProt Q92985, sequence (whole entry, unmodified, looked up): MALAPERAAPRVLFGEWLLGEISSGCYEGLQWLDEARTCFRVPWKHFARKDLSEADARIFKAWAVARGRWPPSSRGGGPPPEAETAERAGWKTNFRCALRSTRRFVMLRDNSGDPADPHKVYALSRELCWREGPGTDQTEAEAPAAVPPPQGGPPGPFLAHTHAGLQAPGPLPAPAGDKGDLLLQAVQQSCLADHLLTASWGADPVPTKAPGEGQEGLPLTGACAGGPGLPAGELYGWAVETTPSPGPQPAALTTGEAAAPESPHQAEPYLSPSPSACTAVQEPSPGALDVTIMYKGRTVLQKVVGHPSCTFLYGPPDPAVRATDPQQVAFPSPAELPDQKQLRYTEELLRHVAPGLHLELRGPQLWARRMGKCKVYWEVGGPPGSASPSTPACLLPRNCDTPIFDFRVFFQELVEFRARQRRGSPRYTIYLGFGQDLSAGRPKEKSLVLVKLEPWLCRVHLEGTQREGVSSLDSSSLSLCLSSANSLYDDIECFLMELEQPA
TTAGGACTGCTTTTCGTTTAGTGCTAG: 3 z-score
GACGAACTGAGATTGGAGACGTGCTAG: -0.293 z-score
ATAGGTTTCCTTATCCTTTAGTGCTAG: 2.2 z-score
GACGATTTCGGGTATCGATACGTGCTA: 3.14 z-score
AACAGAGGAATGGATACAGAGTGCTAG: -0.607 z-score
TTAGAGTTCGGGTTTCGATTAGTGCTA: 2.7 z-score
GACGATTTCGGTTTCGAGACGTGCTAG: 9.91 z-score
TTACGTCTCGGTCTCGGTTAGTGCTAG: 1.9 z-score
GACGATTTCGGTACTGGAGACGTGCTA: 2.59 z-score
AGATGTATGAGCCTCTGTTTGTGCTAG: 0.721 z-score

Set 2 — target: CCNE1, cyclin fold, Cln2 fusion (human); technique: yeast growth competition, sequencing; sample: yeast; setting: weak parent motif; relative to: not given; direction: higher = stronger binding; quantity: normalised enrichment score
Starting sequence: ORC1 docking peptide (human); PRARKRLELGNLG
PRARKTLELGNLG [R6T]: 0.264
PRARWRLELGNLG [K5W]: 0.973
PRARKRLELGILG [N11I]: 0.166
PRARKMLELGNLG [R6M]: 0.978
PRARKRIELGNLG [L7I]: 0.454
PRARKRLEIGNLG [L9I]: 0.565
PRARERLELGNLG [K5E]: -0.066
PRARKRMELGNLG [L7M]: 0.346
PRARKRLELCNLG [G10C]: 0.696
PRARKKLELGNLG [R6K]: 0.344
PRARMRLELGNLG [K5M]: 0.557
PWARKRLELGNLG [R2W]: 0.952
PRARKRLVLGNLG [E8V]: 1.22

Set 3 — target: ATF1, bZIP domain (human); technique: DHFR protein complementation; sample: yeast; relative to: wild-type JUN-FOS pair; direction: higher = stronger binding; quantity: binding fitness
Setting: single substitutions, most at no-binding floor
Starting sequence: JUN, bZIP domain (human); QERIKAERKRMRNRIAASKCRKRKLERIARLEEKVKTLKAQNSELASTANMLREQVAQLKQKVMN; partner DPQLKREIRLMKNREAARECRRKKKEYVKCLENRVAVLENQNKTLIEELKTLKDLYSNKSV
R30I: -1.43 natural log
M51G: -1.51 natural log
I28N: -1.39 natural log
R53W: -1.54 natural log
E33G: -1.49 natural log
A29N: -1.52 natural log
L38C: -1.55 natural log
A46N: -1.39 natural log
A49G: -1.54 natural log
A29E: -1.41 natural log
A49E: -1.44 natural log
N42S: -1.49 natural log
L31Q: -1.48 natural log

Other studies, line by line
PhoQ, residues 284 288 289 292 302 303 AANNSF
fold induction (PhoP, residues 12 14 15 18 19 SQCLL (Escherichia coli, UniProt P23836); Sort-seq, item: YFP reporter; E. coli; PhoQ-PhoP variant library, added: 10 µM Mg2+; relative to: high Mg2+ state, higher = stronger signaling): 13.8

Repeated from above (set 2):
PRARKRLELGILG [N11I]: 0.166
PRARWRLELGNLG [K5W]: 0.973
PRARKMLELGNLG [R6M]: 0.978
PRARKRMELGNLG [L7M]: 0.346
